Results pooled from the literature.
Numbered parts are unrelated; each lists some results of a single study. Changes are numbered by the printed parent chain.

Series 1 — target: CCNA1, cyclin fold, Cln2 fusion (human); method: yeast growth competition, sequencing; matrix: yeast; notes: weak parent motif; relative to: not given; direction: higher = stronger binding
Starting sequence: CDKN1B docking peptide (human); PSACRNLFGPVDH
`PSACRNAFGPVDH [L7A]`: “normalised enrichment score” 0.325.
For `PSACRNLFGPVDQ [H13Q]`, “normalised enrichment score” read 0.51.
For `PSAIRNLFGPVDH [C4I]`, “normalised enrichment score” read 0.36.
For `PSANRNLFGPVDH [C4N]`, “normalised enrichment score” read 0.283.
`PSCCRNLFGPVDH [A3C]` — result for “normalised enrichment score”: 0.402.
`PSACRNSFGPVDH [L7S]`: “normalised enrichment score” 0.384.
For `PSTCRNLFGPVDH [A3T]`, “normalised enrichment score” read 0.205.
For `PSICRNLFGPVDH [A3I]`, “normalised enrichment score” read 0.301.
`LSACRNLFGPVDH [P1L]`: “normalised enrichment score” 0.243.
For `PSACKNLLGPVDH [R5K F8L]`, “normalised enrichment score” read 0.0446.
Under “normalised enrichment score”, `PSQCRNLFGPVDH [A3Q]` is recorded as 0.403.
`PSACRNIFGPVDH [L7I]` — result for “normalised enrichment score”: 0.524.
`PSACRNLFGPKDH [V11K]` — result for “normalised enrichment score”: 0.268.
For `PSACMNLFGPVDH [R5M]`, “normalised enrichment score” read 0.15.
Under “normalised enrichment score”, `PSACRNLFGTVDH [P10T]` is recorded as 0.389.
`PSACRNLMGPVDH [F8M]` — result for “normalised enrichment score”: 0.291.
Under “normalised enrichment score”, `PSACRNLFGHVDH [P10H]` is recorded as -0.108.
For `PSFCRNLFGPVDH [A3F]`, “normalised enrichment score” read 0.484.
`PSACRNLYGPVDH [F8Y]`: “normalised enrichment score” -0.0534.
`PSACRGLFGPVDH [N6G]`: “normalised enrichment score” 0.223.
Under “normalised enrichment score”, `PSACRNLFGQVDH [P10Q]` is recorded as 0.45.
`PSACRNLFGPVGH [D12G]` — result for “normalised enrichment score”: 0.205.
`PSACRNLPGPVDH [F8P]` — result for “normalised enrichment score”: 0.15.
For `PSACRNLFGPVVH [D12V]`, “normalised enrichment score” read 0.0931.
For `PQACRNLFGPVDH [S2Q]`, “normalised enrichment score” read 0.255.

Series 2 — method: DHFR PCA, deep sequencing; matrix: yeast; together with: (+)-ABA 0.39 µM; relative to: wild-type fitted maximum; direction: higher = stronger binding
Target: ABI1, truncated, D143A, DHFR fusion (Arabidopsis thaliana)
Notes: methotrexate growth selection, single substitutions
Starting sequence: PYL1, truncated, DHFR fusion (Arabidopsis thaliana); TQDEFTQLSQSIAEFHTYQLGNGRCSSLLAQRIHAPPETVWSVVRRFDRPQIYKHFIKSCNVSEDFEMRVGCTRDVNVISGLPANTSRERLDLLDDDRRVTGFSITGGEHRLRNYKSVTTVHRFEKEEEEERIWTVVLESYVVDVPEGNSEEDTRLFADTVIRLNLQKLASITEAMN; partner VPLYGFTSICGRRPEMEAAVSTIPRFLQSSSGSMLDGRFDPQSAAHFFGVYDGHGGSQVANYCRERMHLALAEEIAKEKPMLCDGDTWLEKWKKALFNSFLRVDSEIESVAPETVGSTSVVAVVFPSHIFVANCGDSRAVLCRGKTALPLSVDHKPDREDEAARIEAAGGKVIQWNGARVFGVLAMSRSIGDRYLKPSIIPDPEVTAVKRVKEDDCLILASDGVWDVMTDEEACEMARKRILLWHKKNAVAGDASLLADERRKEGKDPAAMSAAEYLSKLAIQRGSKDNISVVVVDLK
`T135H` — result for “relative binding score”: -0.478%.
Under “relative binding score”, `Q2A` is recorded as 56.2%.
`E109I`: “relative binding score” 3.84%.
`A35N` — result for “relative binding score”: -8.57%.
`S104C` — result for “relative binding score”: -2.22%.
For `E128R`, “relative binding score” read 21.7%.
`N165L` — result for “relative binding score”: 8.07%.
Under “relative binding score”, `T1V` is recorded as 56.1%.
For `E152M`, “relative binding score” read 0.724%.
Under “relative binding score”, `G102Q` is recorded as -8.68%.
`N61I`: “relative binding score” 58%.
For `N77R`, “relative binding score” read 64.4%.
For `R155N`, “relative binding score” read -17.7%.
`R74M`: “relative binding score” -2.39%.

Series 3 — Molecule: B1 (MKRN1 RING domain); method: yeast two-hybrid; matrix: yeast; notes: mostly zero background; relative to: not given; direction: higher = stronger interaction
B1: MKRN1 RING domain (UniProt Q9UHC7); chain FAVQRSKDMVCGICMEVVYEKANPSERRFGILSNCNHTYCLKCIRKWRSAKQFESKIIKSCPECRITSNFVIPSE
For UBE2D4 UBC core domain (UniProt Q9Y2X8): “lacZ reporter activity” read 0.
For UBE2E3 UBC core domain (UniProt Q969T4): “lacZ reporter activity” read 0.
For UBE2S UBC core domain (UniProt Q16763): “lacZ reporter activity” read 0.
The “lacZ reporter activity” was 0 (UBE2O UBC core domain (UniProt Q9C0C9)).
For UBE2J1 UBC core domain (UniProt Q9Y385): “lacZ reporter activity” read 0.
It gave 0 for “lacZ reporter activity” (UBE2L3 UBC core domain (UniProt P68036)).
The “lacZ reporter activity” was 0 (UBE2D2 UBC core domain (UniProt P62837)).

Series 4 — method: RNA Bind-n-Seq; molecule type: RNA; matrix: in vitro; tested at: not given; relative to: input RNA pool; direction: higher = stronger binding
Target: RING finger protein unkempt homolog, zinc fingers 1-6, GST-SBP tag (UNK, Homo sapiens, UniProt Q9C0B0, residues 30-357)
Notes: RNA with constant flanks, human-mouse chimeric sites, ends assumed
Constant ends, left off below: GGGAGUUCUACAGUCCGACGAUC … CAACAGAGGAUUGAGCAUCA
With `GUGACUGACAUUAAAAUUUCCCCUCAGCAAAGAAGUGCAGUAGUCACCAUAAUUCCAUCUGUGGUGAGUGCCAGUCAGAUAAAAGAGCUGGUCCCAGACCUCAGUUUAGACAUGGGAACU` the bound/input enrichment was 0.356 ratio.
The bound/input enrichment of `CAGGGCAUUAUUUCUCGUGCUGUUAGACACCUGUUCAAGAGUAUUGAUGAGAAAAAGACCUCAGCGAUUAAAAACGGGCUUCCUGCUCCUGAAUUCAAAGUGAAUGCCCAGUUCCUAGAG` is reported as 0.101 ratio.
The bound/input enrichment of `AAAGAGUGGAUAGAGUGUGCACAUGGAAUCGGUGGGACCCGGGCGAAAAAGGAGUGCAAGAUAGAGUAUGAUGAUUUCGAAGAGUGCUUGCUUCGGUACAAAACGAUGAGGCGAAUGCAU` is reported as 0.927 ratio.
For `AAAGAGAAAGCUAAAACACUAAUAGAGAAGAGGAUUGGCAAAGAGAAUUUCAUAGAGAAACUAGGAUUUAUUAGCAAAACAUGAGUUUAUUCCAGAGCGUCUCAGAAACCCCAGCCAAAC`, the bound/input enrichment was 11.2 ratio.
The bound/input enrichment of `CAGUUGAAGACAGAAAAGGAUGAGAAGGAGCUGUAUAAGGUACAUUUGAAGAAUACAGAAAUAGAAAAUACGAAGCUUGUGUCAGAGAUACAGACUUUAAAAAAUUUAGAUGGAAACAAA` is reported as 3.76 ratio.
With `CACAGAGGAGACCUCCUGUUCCUCACGAAUUUCCGGGAGGACCCCAUCAGAGCUGGUGAAAUAGUUGUUUUUAAGGUUGAAGGAAGAGACAUUCCAAUAGUUCACAGAGUAAUCAAGGUU` the bound/input enrichment was 4.64 ratio.
For `CACAGAGGAGAUCUGCUGUUCCUCACGAAUUUCCGGGAAGACCCAAUCAGAGCUGGUGAAAUAGUUGUUUUUAAGGUUGAAGGAAGAGACAUUCCGAUAGUUCACAGAGUAAUCAAAGUU`, the bound/input enrichment was 1.55 ratio.
`GAUCAUGAACCACCAUCAGAAAUGAAGAUGAGAUUACCCAAGACGAGCAAAACAGCUGCGCUACAGAAAAGUAAACUUAACCUUGCAGAGUUCCUUAAUGAAGAUACAAGUUAAGAGAGC` has a bound/input enrichment of 0.324 ratio.
With `CACUCGAGGGCUGCCGUUUUCUGUUUCUCCCUGGGCUGCGGAAAGCCAGAAGAUUUUAUCUAGCUUAUACAAGGCUGCUGGAGCUUGCUCUUUUUUUCCACGAGGGUGUUUUUGGCUGCA` the bound/input enrichment was 0.362 ratio.
`GUUCGGCUCUGGGAUCAUGCCACAAUGACAGAAGUGAAAUCUCUAAAUUUUAAUAUGUCUGUUAGUAGCAUGGAGUAUAUUCCUGAAGGAGAGAUUUUGGUUAUUACUUAUGGACGAUCU` has a bound/input enrichment of 0.426 ratio.
The bound/input enrichment of `UAAGUUAUUUUGUACAGCUUUGUAAAUUCUUAACAUUUUUAUAUUGCACAUUUUAUGUUGUUUGGGUAAUUUGGUUCAUACAUGGCCUAGCUAAGGUAAUGAACAUCUUUUUCAGUAAUU` is reported as 0.517 ratio.

For quick reference, copied from above (series 3):
For UBE2D4 UBC core domain (UniProt Q9Y2X8): “lacZ reporter activity” read 0.
The “lacZ reporter activity” was 0 (UBE2D2 UBC core domain (UniProt P62837)).
For UBE2S UBC core domain (UniProt Q16763): “lacZ reporter activity” read 0.
For UBE2E3 UBC core domain (UniProt Q969T4): “lacZ reporter activity” read 0.
The “lacZ reporter activity” was 0 (UBE2O UBC core domain (UniProt Q9C0C9)).
For UBE2J1 UBC core domain (UniProt Q9Y385): “lacZ reporter activity” read 0.
It gave 0 for “lacZ reporter activity” (UBE2L3 UBC core domain (UniProt P68036)).
